Assay results from different studies.
Each line is one published result; not all experiments were run side by side.
Target: Dual specificity mitogen-activated protein kinase kinase 1 (MAP2K1, Homo sapiens, UniProt Q02750)
Sequence of UniProt Q02750 (whole entry, looked up): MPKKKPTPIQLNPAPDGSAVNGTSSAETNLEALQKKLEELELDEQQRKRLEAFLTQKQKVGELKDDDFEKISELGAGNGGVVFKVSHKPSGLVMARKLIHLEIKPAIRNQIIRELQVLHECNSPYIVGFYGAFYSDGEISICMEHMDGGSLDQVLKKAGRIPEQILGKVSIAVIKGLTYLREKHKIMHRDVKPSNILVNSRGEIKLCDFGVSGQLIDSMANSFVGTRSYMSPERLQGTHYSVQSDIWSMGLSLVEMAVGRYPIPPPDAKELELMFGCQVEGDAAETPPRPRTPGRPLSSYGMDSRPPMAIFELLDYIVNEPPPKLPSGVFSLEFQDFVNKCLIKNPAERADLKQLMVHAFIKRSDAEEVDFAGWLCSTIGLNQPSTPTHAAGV

SMILES	test	system	conditions	how to read	quantity	value
Cc1cccc(O[C@H]2CCC[C@@H](C(C)CNCc3ccncc3)C2)c1 (relative stereo)	enzyme activity, inhibitor	–	1 µM	–	inhibition	2%
COc1cc(-n2cc3cc(F)cc(C(N)=O)c3n2)cc(Cl)c1C1CC(O)(CCO)Cc2ccccc21 (stereo not drawn)	enzyme activity, inhibitor	–	10 µM	–	inhibition	0.85%
Cc1cnc2nc1Nc1cccc(c1)COC/C=C/COCc1cc(ccc1OCCN1CCOCC1)N2	binding, competition with immobilised ligand	–	0.1 µM	–	remaining binding	82%
O=C(Cc1ccc(OCc2ccccc2)cc1)NC1(C(=O)O)CCN(C(=O)c2ccc(-c3cccc(Cl)c3)cc2)CC1	enzyme activity, inhibitor	–	10 µM	–	activity vs control	112%
CCn1cc(C(=O)O)c(=O)c2c(N)c(F)c(NC3CCCCC3)cc21	kinase activity	–	0.1 µM, together with: ATP at Km	–	inhibition	2.6%
COc1ccc(C(=O)/C=C/c2ccccc2-c2c[nH]c3ccc(C#N)cc23)c(O)c1	enzyme activity, inhibitor	–	20 µM	–	inhibition	12%
Cc1ccc(-c2c(/C=C(\C#N)C(=O)NC(C)C)n(CCCO)c3ncnc(N)c23)cc1	cell-free assay, competition with immobilised ligand	–	1 µM	–	remaining binding	68%
Nc1nc(Nc2ccccc2)sc1C(=O)c1ccccc1	enzyme activity, inhibitor	–	10 µM	–	remaining activity	0%
COc1ccc(NC(=O)Nc2ccc3c(c2)C(=O)N(C(C)CO)CC(C)C(CN(C)Cc2ccc4c(c2)OCO4)O3)cc1 (stereo not drawn)	binding, competition with immobilised ligand	–	10 µM	–	remaining binding	71%
O=C(O)CCC(=O)c1cccc(NS(=O)(=O)c2c[nH]c3ncccc23)c1	kinase activity, radiometric	–	10 µM	–	remaining activity	107%
CCOC(=O)c1ccc2n[nH]cc2c1	thermal stability, DSF	–	500 µM	–	ΔTm	0.8 °C
CNC1C[S+]2CC[S+]3CC[S+](C1)[Ru-4]321([N]=C=S)[n]2c3ccc(OC)cc3c3c4c(c5cc(F)c[n+]1c5c32)C(=O)NC4=O (stereo not drawn)	KinomeScan	–	0.1 µM	relative to: untreated	remaining binding	100%
Cc1cccc(-c2ccc3nc(NC(=O)C4CCOCC4)nn3c2)c1	enzyme activity, Dundee kinase panel	–	10 µM	–	remaining activity	43%
COc1cc(Nc2nccc(-c3cnn4nc(OC)ccc34)n2)cc(C(F)(F)F)c1	binding, competition with immobilised ligand	–	1 µM	–	remaining binding	89%
Cc1cccc(-c2ccc3nc(NC(=O)C4CCCCC4)nn3c2)c1	enzyme activity, Dundee kinase panel	–	10 µM	–	remaining activity	74%
C=CC(=O)Nc1cccc(-c2cnc3[nH]cc(C(=O)NC(C)(C)C)c3n2)c1	enzyme activity, inhibitor	–	0.1 µM	–	inhibition	5%
CCN1CCN(Cc2ccc(C(=O)Nc3ccc(C)c(NCc4cnc5[nH]ccc5c4OC)c3)cc2C(F)(F)F)CC1	binding, competition with immobilised ligand	–	1 µM	–	remaining binding	94%
c1ccc2c(Nc3cc(C4CCC4)[nH]n3)nc(Nc3ccc4nc[nH]c4c3)nc2c1	enzyme activity, inhibitor	–	0.25 µM	–	remaining activity	35%
C=CC(=O)N1CCc2ccc(-n3c(=O)ccc4cnc5ccc(-c6cnn(C)c6)cc5c43)cc21	KINOMEscan	–	1 µM	relative to: DMSO control	remaining binding	99%
CN1CCN(Cc2ccc(NC(=O)c3cccc(C#Cc4cnc(N)c5ncccc45)c3)cc2C(F)(F)F)CC1	cell-free assay, competition with immobilised ligand	–	0.5 µM	–	remaining binding	69%
NC(=O)[C@@H](O)C[C@H]1CCc2sc3ncnc(O[C@H]4CC[C@H](N5CCOCC5)CC4)c3c21	enzyme activity, inhibitor	–	10 µM	–	inhibition	8%
CC(C)=CC1OC(C)(C)C2C=C3C(=O)C(Cl)=CC(O)C3C3C(O)C4OC4C(=O)C132 (stereo not drawn)	cell-free assay, competition with immobilised ligand	–	10 µM	–	remaining binding	63%
O=c1c(-c2ccc(Cl)c(CN3CCOCC3)c2)coc2cc(O)ccc12	enzyme activity, inhibitor	–	1 µM	–	remaining activity	85%
C=CC(=O)Nc1cc(-c2nn(C3CCN(CCNC(=O)[C@H](C)CCC45CC6CC(CC(C6)C4)C5)CC3)c3ncnc(N)c23)ccc1Oc1ccccc1	inhibitor, KiNativ profiling	biochemical	2 µM	–	inhibition	5.1%

Repeated from above:
SMILES	test	system	conditions	how to read	quantity	value
O=C(Cc1ccc(OCc2ccccc2)cc1)NC1(C(=O)O)CCN(C(=O)c2ccc(-c3cccc(Cl)c3)cc2)CC1	enzyme activity, inhibitor	–	10 µM	–	activity vs control	112%
COc1cc(-n2cc3cc(F)cc(C(N)=O)c3n2)cc(Cl)c1C1CC(O)(CCO)Cc2ccccc21 (stereo not drawn)	enzyme activity, inhibitor	–	10 µM	–	inhibition	0.85%
C=CC(=O)Nc1cc(-c2nn(C3CCN(CCNC(=O)[C@H](C)CCC45CC6CC(CC(C6)C4)C5)CC3)c3ncnc(N)c23)ccc1Oc1ccccc1	inhibitor, KiNativ profiling	biochemical	2 µM	–	inhibition	5.1%
